Measurements gathered from unrelated publications.
Several values in a cell are separate wells, animals, samples, runs or records. ± gives the spread as reported.

| Structure (SMILES) | target or system | test | test system | conditions | how to read | measurement | value |
| --- | --- | --- | --- | --- | --- | --- | --- |
| Cn1c(=O)c(F)c(Nc2ccc(I)cc2F)c2c(=O)n(C[C@@H](O)CO)cnc21 | IDO1 human | inhibitor | A-431 | 1 µM, added: IFN-γ | – | kynurenine production | 80.9% |
| COc1ccc([C@@H](O)[C@@H](C)Oc2ccc([C@H]3O[C@H](c4ccc(O[C@H](C)[C@H](O)c5ccc(OC)c(OC)c5)c(OC)c4)[C@H](C)[C@H]3C)cc2OC)cc1OC | HIF-1, human | reporter gene, inhibitor | HEK293T | hypoxia | – | IC50 | 0.0112 µM |
| Oc1ccccc1-c1n[nH]cc1-c1ccnc2ccccc12 | SKY1 (Candida albicans) | kinase binding, MIB/MS competition | Candida albicans lysate | 10 µM | relative to: DMSO | log2 fold change | 0.4 |
| C[C@H](CS)C(=O)N1C[C@@H](Sc2ccccc2)C[C@H]1C(=O)O | aminopeptidase W (pig) | enzyme activity, inhibitor | – | – | – | IC50 | 7 µM |
| O=C(C#Cc1cn(Cc2ccccc2)c(=O)[nH]c1=O)NCc1ccccc1 | MMP-7 | inhibitor, colorimetric | – | 20 µM | – | remaining MMP-7 activity | 102 ± 3% |
| C=CC[C@@]1(C)C(=O)[C@H](C)[C@@H](O)[C@@H](C)CCC/C(COC(=O)C=C)=C\C[C@@H](/C(C)=C/c2csc(C)n2)OC(=O)C[C@@H]1O | tubulin | tubulin assembly, stimulator | cell-free | – | – | EC50 | 0.583 ± 0.064 µM |
| O=C(Nc1ccn(Cc2ccc(O)cc2C(F)(F)F)n1)c1c(F)cccc1F | human GABA-A receptor | receptor activity, agonist | – | – | – | EC50 | > 10 µM |
| CCC(CO)C(=O)O (centres unmarked) | – | binding, MIDAS equilibrium dialysis LC-MS | A2AR-BRIL thermostabilized | concentration not given | relative to: no-protein control | log2 fold change | -0.0127 |
| Cc1ccc2cc(C(=O)NS(=O)(=O)c3ccccc3-c3ccccc3)oc2c1 | estrogen receptor alpha, human | reporter gene | MCF7-MVLN | 24 h | – | IC50 | > 11 µM |
| CNC(=O)[C@@H]1CC[C@@H](n2c(-c3ccc4cnccc4c3)nc3ccc(C(=O)NCc4cccc(C(N)=O)c4)cc32)C1 | human FLT3 ITD/F691L | binding, KINOMEscan | – | 1000 nM | lower = stronger binding | percent of control | 100% |
| C=CC(=O)N1CCN(c2nc(=O)n(-c3c(C)ccnc3C(C)C)c3nc(-c4c(O)cccc4F)c(F)cc23)[C@@H](C)C1 | NRAS wild type (human) | SOS-mediated nucleotide exchange, inhibitor | – | concentration not given | – | inhibition | inactive |
| CC(=O)NCCCC[C@H](NC(=O)CNC(=O)[C@H](CCCNC(=N)N)NC(C)=O)C(=O)Nc1ccc2c(C)cc(=O)oc2c1 | human Y386F mutant enzyme | substrate, fluorogenic | – | – | – | kcat | 0.06 ± 0.02 s⁻¹ |
| CCCN(C)c1ccc2cc(C(=O)NS(=O)(=O)c3ccccc3-c3ccccc3)oc2c1 | estrogen receptor alpha, human | reporter gene | MCF7-MVLN | 24 h | – | IC50 | > 20 µM |
| CC1CCCN(C(=O)c2cc3ncccn3n2)C1 (centres unmarked) | human THEMIS domain | binding, affinity selection mass spectrometry | – | – | relative to: other proteins in batch | fold enrichment | 0.781 |
| COc1ccc(C(=O)c2cc3c(-c4ccccc4)c(O)ccc3o2)cc1 | tubulin | tubulin polymerization, inhibitor, turbidimetry | – | – | relative to: -label | relative potency | 2 fold |
| C[C@H](CS)C(=O)N1CSC[C@H]1C(=O)O | aminopeptidase W (pig) | enzyme activity, inhibitor | – | – | – | IC50 | 17.7 µM |
| O=C(NN=Cc1ccc(C[n+]2ccccc2)cc1)c1ccc2ccc3ccc(C(=O)NN=Cc4ccc(C[n+]5ccccc5)cc4)nc3c2n1.[Br-].[Br-] | 22CTA telomeric G4-DNA antiparallel | FRET melting | – | 1 µM, K10 buffer, DNA 0.2 µM, added: ds26 10 µM | – | ΔTm | 35.9 ± 0.6 °C |
| COc1cccc(CNC(=O)C#Cc2cn(Cc3ccc(C(=O)O)cc3)c(=O)[nH]c2=O)c1 | MMP-3 | inhibitor, colorimetric | – | 20 µM | – | remaining MMP-3 activity | 85 ± 18% |
| Cc1cc(Br)cc2oc(C(=O)NS(=O)(=O)c3ccccc3-c3ccccc3)cc12 | estrogen receptor alpha, human | reporter gene | MCF7-MVLN | 24 h | – | IC50 | > 20 µM |

| Structure (SMILES) | target or system | test | test system | conditions | how to read | measurement | value |
| --- | --- | --- | --- | --- | --- | --- | --- |
| COc1ccc(C(=O)COc2ccc(N3C(=O)[C@@H]4[C@@H]5C=C[C@@H]([C@H]6C[C@@H]56)[C@@H]4C3=O)cc2)cc1 | lanosterol synthase (mouse) | – | Mut6 | 0.1 µM | – | EPC level | 342 ng/mg protein |
| CC(=O)O[C@H]1C(=O)[C@@]2(C)[C@H]([C@H](OC(=O)c3ccccc3)[C@]3(O)C[C@H](OC(=O)[C@H](O)[C@@H](NC(=O)c4ccccc4)c4ccccc4)C(C)=C1C3(C)C)[C@]1(OC(C)=O)CO[C@@H]1C[C@@H]2O | tubulin | tubulin polymerization, inhibitor | MDA-MB-231 | 50, 100, 500 ppm | – | geometric mean inhibition | 61.7% |
| Cc1ccc(N2CC(C(N)=O)CC2=O)cc1 (centres unmarked) | human THEMIS domain | binding, affinity selection mass spectrometry | – | – | relative to: other proteins in batch | fold enrichment | 1 |
| CC[S+]([O-])c1nc(-c2ccccc2)cc(C(F)(F)F)n1 (centres unmarked) | transportin-1/2 | FUS nuclear import, high content imaging | HeLa Kyoto reporter | 0.158 µM, 2 h | – | cells with nuclear reporter | 93.1% and 92.7% |
| COc1cc(-c2cc(-c3ccc(N4CCNCC4)cc3)cnc2C)cc(OC)c1OC | human CK1 | enzyme activity, inhibitor | – | 0.1 µM | – | inhibition | 2% |
| CN(C)c1ccc2nc3ccc(=[N+](C)C)cc-3sc2c1 | GABAA receptor human | GABA-evoked current | HEK293 | 300 µM | relative to: control | residual current at end of application | 10 to 30% |
| NC1CCCNC1=O (centres unmarked) | – | binding, MIDAS equilibrium dialysis LC-MS | A2AR-BRIL thermostabilized | concentration not given | relative to: no-protein control | log2 fold change | -0.097 |
| N#Cc1ccc(COc2cccc(C3CCN(Cc4nc5ccc(C(=O)O)cc5n4C[C@@H]4CCO4)CC3)n2)c(F)c1 | sodium channel | – | – | – | – | IC50 | 7.6 µM |
| O=C(NCC1CCOCC1)c1n[nH]cc1NC(=O)c1c(F)cccc1F | human FLT3 ITD F691L | scanMAX | – | 1 µM | relative to: control | remaining binding | 86% |
| Cc1cccc(N2CC(C(=O)O)CC2=O)c1 (centres unmarked) | human THEMIS domain | binding, affinity selection mass spectrometry | – | – | relative to: other proteins in batch | log fold enrichment | 0.0023 |
| O=C(NS(=O)(=O)c1ccccc1-c1ccccc1)c1cc2ccc(C(F)F)cc2o1 | estrogen receptor alpha, human | reporter gene | MCF7-MVLN | 24 h | – | IC50 | > 20 µM |
| [Ca+2] | human TRPA1 | ion current, two-electrode voltage clamp | Xenopus oocytes | -80 mV, added: AITC | – | desensitization time constant | 6.46 s and 8.17 s and 2.97 s and 8.33 s and 34.8 s |
| C/C(=C\c1csc(C)n1)[C@@H]1C/C=C2\CCC[C@H](C)[C@H](O)[C@@H](C)C(=O)[C@](C)(CC=CCOC2)[C@@H](O)CC(=O)O1 | tubulin | tubulin assembly, stimulator | cell-free | – | – | EC50 | 1.62 ± 0.13 µM |
| C=CC(=O)Nc1cc(Nc2nccc(-c3cn(C)c4ccccc34)n2)c(OC)cc1N(C)CCN(C)C | DUSP4 human | cysteine engagement, chemoproteomic profiling, item: DUSP4 Cys12 peptide | NCI-H2073 | 10 µM, 2 h | relative to: DMSO | log2 fold change | 1.09 |
| COCCN(C)c1ccc2cc(C(=O)NS(=O)(=O)c3ccccc3-c3ccccc3)oc2c1 | estrogen receptor alpha, human | reporter gene | MCF7-MVLN | 24 h | – | IC50 | > 15.5 µM |
| CN(C(=O)n1cnc(-c2ccc[n+]([O-])c2)c1)C1CCCCC1 | dopamine transporter | – | – | concentration not given | – | inhibition | -11.6% |
| C[n+]1cccc2cc(C=NNC(=O)c3ccc4ccc5ccc(C(=O)NN=Cc6ccc7c(ccc[n+]7C)c6)nc5c4n3)ccc21.[I-].[I-] | 22CTA telomeric G4-DNA antiparallel | FRET melting | – | 1 µM, K10 buffer, DNA 0.2 µM, added: ds26 10 µM | – | ΔTm | 22.6 ± 0.7 °C |
| O=C(O)CCCOc1cccc(CNC(=O)C#Cc2cn(Cc3ccc(C(=O)O)cc3)c(=O)[nH]c2=O)c1 | MMP-1 | inhibitor, FRET | – | 10 µM | – | remaining MMP-1 activity | 103 ± 1% |
| CCS(=O)(=O)c1nc(C2CC2)cc(C(F)(F)F)n1 | transportin-1/2 | FUS nuclear import, high content imaging | HeLa Kyoto reporter | 0.0158 µM, 2 h | – | cells with nuclear reporter | 95.5% and 96.1% |

A few entries again:
| Structure (SMILES) | target or system | test | test system | conditions | how to read | measurement | value |
| --- | --- | --- | --- | --- | --- | --- | --- |
| Cc1cc(Br)cc2oc(C(=O)NS(=O)(=O)c3ccccc3-c3ccccc3)cc12 | estrogen receptor alpha, human | reporter gene | MCF7-MVLN | 24 h | – | IC50 | > 20 µM |
| COc1ccc(C(=O)COc2ccc(N3C(=O)[C@@H]4[C@@H]5C=C[C@@H]([C@H]6C[C@@H]56)[C@@H]4C3=O)cc2)cc1 | lanosterol synthase (mouse) | – | Mut6 | 0.1 µM | – | EPC level | 342 ng/mg protein |
| CC(=O)O[C@H]1C(=O)[C@@]2(C)[C@H]([C@H](OC(=O)c3ccccc3)[C@]3(O)C[C@H](OC(=O)[C@H](O)[C@@H](NC(=O)c4ccccc4)c4ccccc4)C(C)=C1C3(C)C)[C@]1(OC(C)=O)CO[C@@H]1C[C@@H]2O | tubulin | tubulin polymerization, inhibitor | MDA-MB-231 | 50, 100, 500 ppm | – | geometric mean inhibition | 61.7% |
| Cc1ccc(N2CC(C(N)=O)CC2=O)cc1 (centres unmarked) | human THEMIS domain | binding, affinity selection mass spectrometry | – | – | relative to: other proteins in batch | fold enrichment | 1 |
| CC[S+]([O-])c1nc(-c2ccccc2)cc(C(F)(F)F)n1 (centres unmarked) | transportin-1/2 | FUS nuclear import, high content imaging | HeLa Kyoto reporter | 0.158 µM, 2 h | – | cells with nuclear reporter | 93.1% and 92.7% |
